Assay results pooled from the literature.
Parts stem from different laboratories: compare values within a part only. Substitutions count along the parent as printed.

Study 1
Target: Protein C-ets-1 (ETS1, Homo sapiens, UniProt P14921, residues 1-441, K379A, full length assumed)
Method: protein-binding microarray
Molecule type: double-stranded DNA, one strand shown
Sample: in vitro
Concentration: not given
Setting: k-mer, scored over probes, only values ≥0.25
Direction: higher = stronger binding
Endpoint: E-score
Residues (chain): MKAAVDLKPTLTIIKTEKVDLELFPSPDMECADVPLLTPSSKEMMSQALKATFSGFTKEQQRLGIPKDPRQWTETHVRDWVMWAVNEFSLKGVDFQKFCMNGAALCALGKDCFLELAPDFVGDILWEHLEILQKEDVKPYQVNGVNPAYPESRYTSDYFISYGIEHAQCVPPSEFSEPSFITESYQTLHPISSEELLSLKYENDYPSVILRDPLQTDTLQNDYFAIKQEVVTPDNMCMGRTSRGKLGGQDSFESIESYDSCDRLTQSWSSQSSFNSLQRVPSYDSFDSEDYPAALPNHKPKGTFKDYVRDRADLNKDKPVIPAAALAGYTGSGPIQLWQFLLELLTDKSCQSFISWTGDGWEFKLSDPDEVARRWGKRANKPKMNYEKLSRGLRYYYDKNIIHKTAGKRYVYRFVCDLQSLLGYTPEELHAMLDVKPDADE
ATCCCCGG: 0.284
AACGACAT: 0.274
CAATAATA: 0.265
ATGTGTTG: 0.251
GCACCGGA: 0.392
ATCATATA: 0.278
ACATATAC: 0.313
CCGACCGG: 0.372

Study 2
Target: RING finger protein unkempt homolog, zinc fingers 1-6, GST-SBP tag (UNK, Homo sapiens, UniProt Q9C0B0, residues 30-357)
Method: RNA Bind-n-Seq
Molecule type: RNA
Sample: in vitro
Concentration: not given
Setting: RNA with constant flanks, human and mouse sites, ends assumed
Reference: input RNA pool
Direction: higher = stronger binding
Endpoint: bound/input enrichment
Target sequence (chain): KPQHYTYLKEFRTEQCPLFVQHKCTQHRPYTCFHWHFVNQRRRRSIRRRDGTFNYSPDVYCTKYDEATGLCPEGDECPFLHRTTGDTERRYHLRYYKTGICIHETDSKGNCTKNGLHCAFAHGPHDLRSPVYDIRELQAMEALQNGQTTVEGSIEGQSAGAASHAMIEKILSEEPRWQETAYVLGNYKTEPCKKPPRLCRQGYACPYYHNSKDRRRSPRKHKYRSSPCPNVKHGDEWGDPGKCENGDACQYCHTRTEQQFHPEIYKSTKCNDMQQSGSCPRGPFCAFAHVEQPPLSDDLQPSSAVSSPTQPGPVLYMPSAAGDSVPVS
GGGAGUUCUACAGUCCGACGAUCGCUUCUGGAUCUAGAUCCAGGAAGUCACAUUCUAAGCAAAUGCCUCGGCCUGUUAAAGGGUUUAGUUGCUUCAGUUCAUGAAUGAUCCUAUCCCAGCCUACUCCUCUGUGGCCUUGACGCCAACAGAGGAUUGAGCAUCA: 0.0734 ratio
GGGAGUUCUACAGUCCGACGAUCGCGAAACAGGAAAUCCUGGAAAACAAAGAUGUGGUGGUUCAGCAUGUUCAUUUUGAUGGACUUGGGCGGACUAAGGAUGACAUCAUCAUUUGUGAAAUCGGAGAGGUCUUUAAGGCUAAACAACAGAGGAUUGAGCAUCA: 0.189 ratio
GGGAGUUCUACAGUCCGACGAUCGAGCCACCAUACAGAGUACCUAGGGAUGAUUGGGAAGAAAAAAGGCACUUUAGAAGAGAUAGUUUUGAUGAUCGUGGUCCUAGUCUCAACCCAGUGCUUGAUUAUGACCAUGGAAGUCGUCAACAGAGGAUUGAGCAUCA: 1.91 ratio
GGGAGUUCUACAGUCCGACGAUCGCAGAGAUGGAGAACAUUAAGGCAAUUGCCACAGUCUCUGAGAAUACUAAGCAAGAAGCUAUAGAUGAAGUUAAAAGGCAAUGGAGAGAAGAAGUUGCUUCACUUCAGGCUAUAAUGAAACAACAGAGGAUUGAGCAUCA: 0.476 ratio
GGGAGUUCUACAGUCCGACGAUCCAAAACUCCGUACAUUGCUAUUUUGCCACACUGCAACACCUUACAGAUGUGGAAGAUGUGAAAUUUGUCAUCAAUUAUGACUACCCUAACUCCUCAGAGGAUUAUAUUCAUCGAAUUGGACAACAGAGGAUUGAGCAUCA: 0.112 ratio
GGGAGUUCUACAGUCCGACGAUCUCUGAGAAAAGAAACUACCAGGUGACAAACAGCAUGUUUGGUGCUUCAAGAAAGAAGUUUGUAGAGGGGGUCGACAGUGACUACCAUGACGAAAACAUGUACUACAGCCAGUCUUCUAUGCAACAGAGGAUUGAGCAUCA: 0.119 ratio
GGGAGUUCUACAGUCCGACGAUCCAGAAGAGUGCCCUGGUCAAGCGGCUCAAAGGGGCUCUAAUGCUAGAAAAUUUACAGAAACACUCAACACCCCAUGCUGCAUUCCAGCCAAAUUCCCAGAUUGGUGAGGAAAUGAGCCAGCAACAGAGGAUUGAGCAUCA: 15.2 ratio
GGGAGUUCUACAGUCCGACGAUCAUUGCAAGGAAGAUCAUUAAGGACGGUGAGCAACAUGAAGAUCUCAAUGAAGUAGCUAAACUCUUCAACAUUCAUGAAGAUUGAAUCCCAAUCGUGGAAUACACAAGCACUUUUCCAUCCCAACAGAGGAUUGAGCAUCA: 0.104 ratio

Further values, each from its own experiment
P1: PafA, mature enzyme, eGFP fusion (Elizabethkingia meningoseptica, UniProt Q9KJX5); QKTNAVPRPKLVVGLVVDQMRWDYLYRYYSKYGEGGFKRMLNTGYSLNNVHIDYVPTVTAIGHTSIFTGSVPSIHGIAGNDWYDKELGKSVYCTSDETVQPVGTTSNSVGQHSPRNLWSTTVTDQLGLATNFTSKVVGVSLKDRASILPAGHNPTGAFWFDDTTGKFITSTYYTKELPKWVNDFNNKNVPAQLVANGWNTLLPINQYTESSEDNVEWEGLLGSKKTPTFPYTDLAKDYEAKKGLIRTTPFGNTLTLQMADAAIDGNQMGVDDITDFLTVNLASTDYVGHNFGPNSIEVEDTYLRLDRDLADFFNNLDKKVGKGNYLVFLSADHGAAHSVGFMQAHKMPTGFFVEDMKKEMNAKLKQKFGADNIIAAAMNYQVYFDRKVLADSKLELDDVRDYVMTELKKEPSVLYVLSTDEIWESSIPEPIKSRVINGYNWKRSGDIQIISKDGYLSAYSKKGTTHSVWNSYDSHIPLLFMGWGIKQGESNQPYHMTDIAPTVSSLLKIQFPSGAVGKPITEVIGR
SMNDC1 (Homo sapiens, UniProt O75940)  cross-linked residues (SF3B2 (Homo sapiens, UniProt Q13435); cross-linking MS; cell fractions; added: DSSO): K177 to K570
P1 K31V  oxyanion analog dissociation constant (vanadate, free oxyanion; microfluidic competitive inhibition; in vitro, cell-free expressed; not given, derived from inhibition constants, unchanged parent 676 nM; lower = stronger binding): 716 nM
P4HA2 (Homo sapiens, UniProt O15460)  interaction screen (P4HB (Homo sapiens, UniProt P07237); cross-linking MS; hits only): cross-linked
CCT3 (Homo sapiens, UniProt P49368)  cross-linked residues (PDCL3 (Homo sapiens, UniProt Q9H2J4); cross-linking MS; cell fractions; added: DSSO): S380 to K214
